Assay results of several laboratories.
Protocols differ between the studies behind these lines. Several values in a cell are separate wells, animals, samples, runs or records. ± gives the spread as reported.
Cell line: HepG2

For `c1ccc2c(c1)nc(CNCC13CC4CC(CC(C4)C1)C3)n2CC1CC1`, the CC50 was 67.3 µg/mL (cell growth or viability, XTT).
The viability of `Cc1ccc(NC(=O)Nc2cccc(C(=O)N3CCC(C)CC3)c2)cc1` is reported as 96.2% (cell growth or viability, MTT; 100 µM).
The IC50 of `C#Cc1cc(/C=N/NC(=O)CCl)c2nccn2c1` is reported as 33.9 µM (cell growth or viability, ATP luminescence; 24 h).
With `COc1ccccc1-c1ccc(OCCc2cccc(F)c2)c(C(N)=O)c1` the selectivity ratio was over 2 (3 (unit not given); reference: CC50 glucose over CC50 galactose).
For `CC1CCN(C(=O)c2cccc(NC(=O)Nc3ccc(F)cc3F)c2)CC1`, the viability was 58.9% (cell growth or viability, MTT; 100 µM).
`NC(=O)c1cc(-c2ccco2)ccc1OCCc1cccc(F)c1` has a selectivity ratio of under 1 (3 (unit not given); reference: CC50 glucose over CC50 galactose).
`C#Cc1ccc(N2CCOCC2)c(/C=N/NC(=O)CCl)c1` has an IC50 of 1.5 µM (cell growth or viability, ATP luminescence; 24 h).
The IC50 of `Nc1ccccc1C(=O)OCC#CCOC(=O)c1ccccc1N` is reported as over 50 µM (MTT; 72 h).
For `NC(=O)c1cc(-c2ccoc2)ccc1OCCc1cccc(F)c1`, the CC50 was 37 ± 9.5 µM (galactose medium; 3 (unit not given)).
`O=C(O)c1cccc(CP(=O)(O)O)n1` has an EC50 of over 250 µg/mL (cytotoxicity, Alamar blue; DMEM without FBS; 24 h, 10% FBS).
`O=C(CCl)Nc1cccc(NC2=NS(=O)(=O)c3ccccc32)c1` has an IC50 of 38.2 µM (cell growth or viability, ATP luminescence).
With `NC(=O)c1cc(C2=CCOC2)ccc1OCCc1cccc(F)c1` the selectivity ratio was > 3 and ~3 (3 (unit not given); reference: CC50 glucose over CC50 galactose).
For `O[Si](CCCN1CCCCC1)(c1ccc(F)cc1)C1CCCCC1` (stereo not shown), the IC50 was 34.8 µM (cell growth or viability; 72 h).
